# Assay results from different studies.
# Compare with care: the assays were run in different laboratories.
# Organism: Cryptococcus neoformans
Compound,test,test system,conditions,scale,endpoint,result
O=C(NCCNCCO)c1cn(Cc2ccc(F)cc2)c2cc(Cl)c(OCc3ccc(C(F)(F)F)cc3)cc2c1=O,,ATCC 208821,,≥80% growth inhibition,MIC,< 0.25 µg/mL
CC(C)Sc1cccc(O)c(=O)c1O,"microbial growth, broth dilution",,13 h,,MIC80,2.6 µM
CN(Cc1cc(C2CC2)on1)C(=O)c1cccc(-c2ccc3c(c2)CCO3)c1,,H99,added: flucytosine,,FIC index,2
COc1cc(Cn2ccc([C@H](C)[C@](O)(Cn3cnnn3)c3ccc(F)cc3F)n2)ccc1F,"growth, broth microdilution",H99,"72 h, 30 °C, ≥50% inhibition",,MIC,< 0.008 µg/mL
C/C=C/CNC(=N)NCCCCCCCCN1CCCc2ccc(F)cc2COc2ccccc2CNC(=N)NC1=O,"microbial growth, broth dilution",,24 h,,MIC90,3.12 µg/mL
CCCCCCCCCCCCCCCCC1CC(=O)NCCCN(C)CCCCN(C)CCCN1C (stereo not shown),microbial growth,ATCC90113,,,IC50,1 µg/mL
C[C@@H](c1ccn(Cc2ccc(C#N)cc2)n1)[C@](O)(Cn1cnnn1)c1ccc(F)cc1F,"growth, broth microdilution",H99,"72 h, 30 °C, ≥50% inhibition",,MIC,1 µg/mL
C/C=C/CNC(=N)NCCCCCCCCN1CCCCCCOc2ccccc2CNC(=N)NC1=O,"microbial growth, broth dilution",,24 h,,MIC90,6.25 µg/mL
CCCCCCS(=O)(=O)c1cccc(O)c(=O)c1O,"microbial growth, broth dilution",,13 h,,MIC80,14 µM
S=c1[nH]c2cccc(Cl)c2n1CCOc1ccccc1,"Mpk1 phosphorylation, Western blot",,"concentration not given, added: calcofluor white",reference: calcofluor white alone,inhibition,90%
CCCCSc1cccc(O)c(=O)c1O,microbial growth,,13 h,,MIC80,1 µM
C[C@@H](c1ccn(Cc2ccc(F)c(Cl)c2)n1)[C@](O)(Cn1cnnn1)c1ccc(F)cc1F,"growth, broth microdilution",H99,"72 h, 30 °C, ≥50% inhibition",,MIC,< 0.008 µg/mL
O=c1c(O)cccc(S(=O)(=O)c2cccc3ccccc23)c1O,"microbial growth, broth dilution",,13 h,,MIC80,38 µM
CCCCCCCCCC1CC2CCCC3CC(CCCCCCCCC)NC(=N1)N23 (stereo not shown),microbial growth,ATCC90113,,,IC50,2.39 µM
CCCCS(=O)(=O)c1ccc(S(=O)(=O)CCCC)c(O)c(=O)c1O,"microbial growth, broth dilution",,13 h,,MIC80,100 µM
CCCCCn1ccc([C@H](C)[C@](O)(Cn2cnnn2)c2ccc(F)cc2F)n1,"growth, broth microdilution",H99,"72 h, 30 °C, ≥50% inhibition",,MIC,0.25 µg/mL
CCCCCC1CC2CCCC3CC(C)N=C(N1)N32 (stereo not shown),fungal growth,ATCC 90113,,,MFC,3.96 µM
C[C@@H](c1ccn(Cc2ccc(F)cc2)n1)[C@](O)(Cn1cnnn1)c1ccc(F)cc1F,"growth, broth microdilution",H99,"72 h, 30 °C, ≥50% inhibition",,MIC,0.125 µg/mL
CS(=O)(=O)c1cccc(O)c(=O)c1O,"microbial growth, broth dilution",,13 h,,MIC80,50 µM
CCCCCCCCCC1CC2CCC3CC(CCCCCCCCC)NC(=N1)N23 (stereo not shown),fungal growth,ATCC 90113,,,MFC,2.99 µM
C[C@@H](c1ccn(Cc2cccc(Cl)c2F)n1)[C@](O)(Cn1cnnn1)c1ccc(F)cc1F,"growth, broth microdilution",H99,"72 h, 30 °C, ≥50% inhibition",,MIC,< 0.008 µg/mL
C/C=C/CNC(=N)NCCCCCCCCN1CCCc2cc(Cl)ccc2COc2ccccc2CNC(=N)NC1=O,"microbial growth, broth dilution",,24 h,,MIC90,3.12 µg/mL
O=c1c(O)c(S(=O)(=O)Cc2ccccc2)ccc(S(=O)(=O)Cc2ccccc2)c1O,"microbial growth, broth dilution",,13 h,,MIC80,73 µM
CCCn1ccc([C@H](C)[C@](O)(Cn2cnnn2)c2ccc(F)cc2F)n1,"growth, broth microdilution",H99,"72 h, 30 °C, ≥50% inhibition",,MIC,2 µg/mL
CCCCCCCCCCCCCCCC(=O)NCC(=O)N(CC(=O)N(CCCCN)CC(=O)N(CCN)CC(=O)N(CC(N)=O)C1CCCCC1)C1CCCCC1,broth microdilution,,"72 h, 35 °C",,MIC,3.13 µg/mL

# For quick reference, copied from above:
Compound,test,test system,conditions,scale,endpoint,result
CCCCCCCCCC1CC2CCC3CC(CCCCCCCCC)NC(=N1)N23 (stereo not shown),fungal growth,ATCC 90113,,,MFC,2.99 µM
S=c1[nH]c2cccc(Cl)c2n1CCOc1ccccc1,"Mpk1 phosphorylation, Western blot",,"concentration not given, added: calcofluor white",reference: calcofluor white alone,inhibition,90%
